Published values collected from several papers.
Each numbered part is a random draw from the data of one study; scales do not carry over between parts. Changes are numbered by the printed parent chain.

Sample 1 — method: protein binding microarray; molecule type: double-stranded DNA, one strand shown; sample: in vitro; concentration: not given; relative to: not given; direction: higher = stronger binding; endpoint: E-score
Target: Histone acetyltransferase KAT6A, both winged helices, GST fusion (KAT6A, Homo sapiens, UniProt Q92794, residues 1-181)
Setting: 8-mer, flanks averaged, mean of 2 arrays, mostly near background
Residues (chain): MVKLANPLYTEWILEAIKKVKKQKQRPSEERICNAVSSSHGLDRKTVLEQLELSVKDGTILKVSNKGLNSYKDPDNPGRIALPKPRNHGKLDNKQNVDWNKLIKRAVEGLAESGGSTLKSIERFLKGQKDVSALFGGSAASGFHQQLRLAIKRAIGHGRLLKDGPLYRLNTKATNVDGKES
ATGTAAAG: -0.0523
CCGCTCTA: 0.176
AGTAAGAT: -0.145
ACTTGAAG: -0.137
AAGTGTAC: -0.0774
CTTGGAGC: -0.207
AGATCTAT: 0.015
CATTTGGG: -0.0579
AGGACACC: -0.0341
CTACCGGA: 0.0729
CTCACACA: -0.0508
CTTCAAGC: -0.0447
GTTGGCCA: -0.102
ACACTTGA: -0.156
GTAGCCTA: -0.115
GCGCCGGA: 0.33
ACGAAAGG: -0.0665
ATAATTAG: -0.0692
CCACTCCA: -0.18
GTCCAGCA: -0.192
CTTATACC: -0.0566
ATTGACAA: -0.0842
GTATATGA: 0.00317
CTATCGCC: 0.0843
CTCGGGAC: 0.0368

Sample 2 — target: CCND3, cyclin fold, Cln2 fusion (human); method: yeast growth competition, sequencing; sample: yeast; setting: weak parent motif; relative to: not given; direction: higher = stronger binding; endpoint: normalised enrichment score
Starting sequence: RBL2 docking peptide (human); STTRRRLFVENDS; partner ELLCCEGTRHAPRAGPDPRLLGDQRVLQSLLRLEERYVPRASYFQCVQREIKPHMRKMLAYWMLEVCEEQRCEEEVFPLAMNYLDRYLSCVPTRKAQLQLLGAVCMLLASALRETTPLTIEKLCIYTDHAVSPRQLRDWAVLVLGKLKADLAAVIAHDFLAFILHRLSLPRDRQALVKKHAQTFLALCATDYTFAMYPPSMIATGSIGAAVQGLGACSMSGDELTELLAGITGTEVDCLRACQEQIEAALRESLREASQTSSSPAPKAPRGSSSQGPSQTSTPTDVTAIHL
STTRTRLFVENDS [R5T]: 0.221
STTRRRLFVENRS [D12R]: 0.193
STTRRRLFKENDS [V9K]: 0.133
STTRRRVFVENDS [L7V]: 0.0839
STTERRLFVENDS [R4E]: 0.0465
STTRRRLFVTNDS [E10T]: -0.0295
STTRRRLLVENDS [F8L]: 0.107
SHTRRRLFVENDS [T2H]: 0.0733
STTRRRLFVDNDS [E10D]: 0.206
STTRRRIFVENDS [L7I]: 0.266
STTRRRLFVENNS [D12N]: 0.101
STTRRRLFVENTS [D12T]: 0.0763
STTRRRLFVENDA [S13A]: 0.0617
STTRRRLEVENDS [F8E]: 0.0182
STTYRRLFVENDS [R4Y]: 0.238
STTRRRLFVEDDS [N11D]: 0.12
STTRRRQFVENDS [L7Q]: 0.0989
STTRRTLFVENDS [R6T]: 0.109
STTRRKLFVENDS [R6K]: 0.125

Sample 3 — method: RNA Bind-n-Seq; molecule type: RNA; sample: in vitro; concentration: 365 nM; relative to: no-protein control; direction: higher = stronger binding; endpoint: RBNS enrichment (R)
Target: RNA binding protein fox-1 homolog 2, RRM domain, GST-SBP tag (RBFOX2, Homo sapiens, UniProt O43251-10, residues 100-194)
Setting: natural RNA segment, single round, ends assumed
Constant ends, left off below: GGGAGUUCUACAGUCCGACGAUC … UGGAAUUCUCGGGUGCCAA
Construct (chain): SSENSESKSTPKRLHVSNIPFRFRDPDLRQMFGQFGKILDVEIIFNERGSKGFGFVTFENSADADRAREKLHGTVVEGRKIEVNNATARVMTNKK
CCAUCUGCAAUUUGCCUGUGGGAGAAGCAUCCUUUAGUUCAUCUUAAGGAAGUGCUUUAUCAGCUAAACCCAACAUUGAUAACUUUGGUAAUUUUUUUAAAAAGUUAUAC: 0.288
CUGGGCAACAUGGUGAAACCCGUCUCUACCAAACAGACAAAAAGCAGCCAGGCGUGGUGGCACAUCUGUGGUCCCAGCUACUUGAGAGGCUGAGCCAGGAGGAUCGCUUG: 0.527
GGGAAAUGGCCUUCCCGCCGGAGGCCAGCUAUCUGCCUGACAGGCUGUGACUCUUCUCUCAACCUUGGCCUUCUCCCCUCUUCUGAGCUAGUUGGUUGAAUUUUUUUUAA: 0.341
ACAUCUCAAGGGACUUGCCCAGGACAUGGAACUGUGGCCUCCUUGACAAACCUAUCUCUUGGACUCAAGUUGGAUUGAUCAAGUUGAACCCUUUGAACCUGAUGUGACUU: 0.301
AAAAUGGAAAAUAGUAAACACGGGAAUUGAUUUUAUUCUGGUUGUCUAUAAUACUUCAUUUUAAAUGUAAAUGGCCACUCUGCAUUUGCAAGGCCCGGUGGUUGACAUCU: 0.288
UCUAAGCCUACAAGUACUACUUGCUAUAGCUCAGACUUGUCUACAGUUCUUUGUAUGAUGCACUUUGGACCCACCCUCUCCUCAUGUCACUACUUUGCACACUUCCUCCA: 0.551
GGUCUGUGGUCACUCUCCACCUUGUCCUAGUGUUGCCAUGGUAGCAUGGCUUUGUAGUUUGCAUUUAACCUGGGGAUCUAUGCAUCCUGUCAAGAGGGUGGGUCCCCAUC: 2.32
UAUAGUUACAGAACCAUUGUGAAUUUCAAAGCUAGCAACCUACACGGUGCACCAGGUUGACUUGAAUAAAUUUGGCAACCAGGUUUGCAAGCGUGCAGAAACUAACUCCU: 0.328
ACAUCUUCUGAAGGCCCUCACUGCCUCAAGCCCUCUCCCCUCCUCGCAGGGCAGGCUUGGUGCACUGGCUUCUCUCACAUCUUUCUUGCAAUUAUGAUACUCUGAGAUUU: 0.308
CCCUUCCCAUCCGUCCUCCCUCAGGAACCAAGAAGUCCAAGAAGGGACGGGGCCGCUCAGGGCGUUAGGAGAAUAGAGGAAGAGAGGGCAGCUGUGAGAACCCGGCUCGU: 0.291
UACGUCAUUUGUUAAUGCUUUUGUGAAGUGAGUUAAACGAGCUUUCUGUAUUUUAAUGCUUUAGUGUUUCAGUUUUAUAAGUGAAGAUUUUAUUUUAAAAACCAGUGGGA: 0.482
AUGUCGUAAGUUCUCUGUAAGUGAAAUGGGGUAGACUGUAUGAUUUUCCUAUUGCCAAAAGAAAGAAAGGGGGCCAAACAGCUCUGAAAUUUCCAAAAAAUGGCUAGAGG: 0.563

Sample 4 — method: RNA Bind-n-Seq; molecule type: RNA; sample: in vitro; concentration: 100 nM; relative to: input RNA pool; direction: higher = stronger binding; endpoint: bound/input enrichment
Target: RING finger protein unkempt homolog, zinc fingers 1-6, SBP tag (UNK, Homo sapiens, UniProt Q9C0B0, residues 30-357)
Chain of UniProt Q9C0B0 (30-357, looked up): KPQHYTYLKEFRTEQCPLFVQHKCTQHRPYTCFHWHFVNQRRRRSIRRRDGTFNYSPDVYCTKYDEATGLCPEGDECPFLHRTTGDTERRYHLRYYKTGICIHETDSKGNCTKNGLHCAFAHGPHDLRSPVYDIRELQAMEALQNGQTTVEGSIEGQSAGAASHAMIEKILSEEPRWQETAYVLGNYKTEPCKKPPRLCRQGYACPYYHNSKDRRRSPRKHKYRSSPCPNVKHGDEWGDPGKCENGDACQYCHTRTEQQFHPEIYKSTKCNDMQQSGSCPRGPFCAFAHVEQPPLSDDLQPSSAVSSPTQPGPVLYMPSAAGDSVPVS
Setting: RNA with constant flanks, vertebrate orthologous sites, ends assumed
Constant ends, left off below: GGGAGUUCUACAGUCCGACGAUC … CAACAGAGGAUUGAGCAUCA
GUUAGGUCAUGACCCUUACAGGCUAGGUCAUGAUGCCUACAGGUUAGGGCAGGAUCCCUAUAGAUUAGGCCAUGAUCCCUACAGACUAACUCCUGAUCCCUAUAGAAUGUCACCUAGACC: 0.6 ratio
GUUAAUUGUGUACCAAAUGCUGAGUGAGGAUCACAUUAAACCAUCAGUUAGAAUAGAGAUUUGUUACAGUUUAGCUUCAAAUAGGUUUCCUUAAACCAGAGAUGCACUGCCCUUGUCUGG: 1.59 ratio
AAAUUUACUUCAUGCCCUGGACUCCUUAUCGUACAGACACGUUAAUAGAGUACUCUUCACUGGAUGACUUCCAGAAUGGGCGUCAAACCACCACAUACAAGCUCCCCCACCGAGUGGACG: 0.632 ratio
CAACUCCAUGGUGGAGGGCUCAGAACUCAAAAAGGUCCGCUCCAACUCCAGAAUUUACCAUCGCUAUUUCCUGCUGGACGCCGACAUGCAAAGCCUGAGGUGGGAGCCAUCUAAGAAGGA: 0.227 ratio
GAUUCUGAGUCCUCCACUUGUUCUCACUGGUGAUCCUUCAAAGUUGAGUCUAGAAGGGACUAGAAAUUUUCUUUCUCUGGGGCCUCUCGUCAGAGAGACAGGUGUUAAAAACAGGAAUAU: 0.476 ratio
UGAGCAUACAUAUACAAUGUGUUUCAAAUGCUGCUUGUAAAAUUAAACCAUCAUCUAGAGUAGAGUUAAUUUGUUAUAAUCAAGCUACAAAUAGGUUUUCUUAAACCAGAGAUGCACUGC: 0.39 ratio
CUACAAUAAUGAAAACCUACCAGAAAUUUUUUUUAUUUUUCAUUUUCCUUUAGGCAUACUUAAGCCUUUUUCUCCCCAGGCAGAUGAUUCUGAGUGUGCGAGUGUGUGUGCACAUGUUAC: 0.493 ratio
CAGCAGAUUCUCUCAUAGGGAGAGCUGCACACAUUGCUGUUCUUGAUUCAGAAAUAUUUUUAGAAAAAUUCUUUCUUGUUGCUGCCCUAAAAUAUUUUCAGUAAAGAAAGGCUUUGUCAG: 0.284 ratio
CCCCGUUUUUAAAUGCUCUUUUGAUGCUUCCGGCAGCACCAUUUGUACAGUUUUUCUCUAAAAACAAAAAUGUUGAUUCGAAUUUCUUGUAUUUAAGUUUAAAUUGUUACAACAUUUUAG: 0.236 ratio
AAAUAUACUUCAUGCCAUGGACUCCAUAUCGCACUGAUACUUUGAUAGAAUAUGCUUCUUUAGAGGACUUCCAAAACGGACGCCAACAGACAACAUAUAAACUUCCAAAUCGAGUGGAUG: 1.14 ratio
GGGCGGCCCGUGGGGGAAUUCCCUGCCUUGGCCUUACCUCCCCUUCCUGCCACUUGCCCCUAGUUAUUUUUUUUUUUUUACCACCAUGUGAUUAAGGUCGGCGCUGCCUCCCCCGACCCA: 9.88 ratio

For quick reference, copied from above (sample 2):
STTRTRLFVENDS [R5T]: 0.221
STTRRRLFVENRS [D12R]: 0.193
STTRRRLFKENDS [V9K]: 0.133
STTRRRVFVENDS [L7V]: 0.0839
STTERRLFVENDS [R4E]: 0.0465
STTRRRLFVTNDS [E10T]: -0.0295
STTRRRLLVENDS [F8L]: 0.107
